Measured values collected from several papers.
Protocols differ between the studies behind these lines. “And” joins repeats or separate records; there may be more than shown.
EIF2AK4 S808G: eIF-2-alpha kinase GCN2 (EIF2AK4, Homo sapiens, UniProt Q9P2K8, S808G)
EIF2AK4 S808G C-terminal kinase domain: eIF-2-alpha kinase GCN2, C-terminal kinase domain (EIF2AK4, Homo sapiens, UniProt Q9P2K8, S808G)
EIF2AK4: eIF-2-alpha kinase GCN2 (EIF2AK4, Homo sapiens, UniProt Q9P2K8)

CNC1C[S+]2CC[S+]3CC[S+](C1)[Ru-4]321([N]=C=S)[n]2c3ccc(OC)cc3c3c4c(c5cc(F)c[n+]1c5c32)C(=O)NC4=O (stereo not drawn)
remaining binding (EIF2AK4 S808G; KinomeScan; 0.1 µM; relative to: untreated): 91%

CC(C)=CC1OC(C)(C)C2C=C3C(=O)C(Cl)=CC(O)C3C3C(O)C4OC4C(=O)C132 (stereo not drawn)
remaining binding (EIF2AK4 S808G C-terminal kinase domain; cell-free assay, competition with immobilised ligand; 10 µM): 90%

Cc1cc(NC(=O)[C@H](O)c2cc(F)cc(F)c2)ccc1-c1cnc(N)c(C(=O)NC(C)C)c1
remaining binding (EIF2AK4 S808G C-terminal kinase domain; binding, competition with immobilised ligand; 1 µM): 90%

C=CC(=O)N1CCc2ccc(-n3c(=O)ccc4cnc5ccc(-c6cnn(C)c6)cc5c43)cc21
remaining binding (EIF2AK4 S808G; KINOMEscan; 1 µM; relative to: DMSO control): 96%

C=CC(=O)N1CCCC(n2c(=O)c3ncccc3n(Cc3ccc(Oc4ccccc4)cc3)c2=O)C1 (stereo not drawn)
remaining binding (EIF2AK4 S808G; binding, competition with immobilised ligand; 1 µM): 100%

CCN1CCN(Cc2ccc(NC(=O)c3ccc(C)c(NC(=O)c4cncc(-c5cccs5)c4)c3)cc2C(F)(F)F)CC1
remaining binding (EIF2AK4 S808G C-terminal kinase domain; binding, competition with immobilised ligand; 1 µM): 5.8%

N[C@H]1CC[C@H](Nc2nccc(-c3cccnc3Oc3ccc(NC(=O)NC4CC4)c4ccccc34)n2)CC1
log2 LFQ intensity (EIF2AK4; kinobead competition pulldown; HEK293/HCT116 lysate mixture; 10 µM, 1 h, 4 °C; lower = stronger competition): 19.7 and 19.4

CNC(=O)C[C@H](Cc1ccc(C#N)cc1)NC(=O)c1cc(-c2ccc(CN[C@H](C)c3ccc(C)cc3)o2)ccc1Cl
activity vs control (EIF2AK4; enzyme activity, inhibitor; 1 µM): 102%

O=C(Cc1ccc(OCc2ccccc2)cc1)NC1(C(=O)O)CCN(C(=O)c2ccc(-c3cccc(Cl)c3)cc2)CC1
activity vs control (EIF2AK4; enzyme activity, inhibitor; 10 µM): 101%

Cc1ccc(-c2c(/C=C(\C#N)C(=O)NC(C)C)n(CCCO)c3ncnc(N)c23)cc1
remaining binding (EIF2AK4 S808G; binding, competition with immobilised ligand; 1 µM): 90%

Nc1ncc2c(n1)-c1c([nH]c3ccc(C4=CCOCC4)cc13)CCC2
remaining binding (EIF2AK4 S808G C-terminal kinase domain; binding, competition with immobilised ligand; 1 µM): 78%

Cc1cnc2nc1Nc1cccc(c1)COC/C=C/COCc1cc(ccc1OCCN1CCOCC1)N2
remaining binding (EIF2AK4 S808G; binding; 0.1 µM): 10%

CCn1cc(C(=O)O)c(=O)c2c(N)c(F)c(NC3CCCCC3)cc21
inhibition (EIF2AK4; kinase activity; 0.1 µM, with: ATP at Km): 14.6%

CCN1CCN(Cc2ccc(C(=O)Nc3ccc(C)c(NCc4cnc5[nH]ccc5c4OC)c3)cc2C(F)(F)F)CC1
remaining binding (EIF2AK4 S808G C-terminal kinase domain; binding, competition with immobilised ligand; 1 µM): 2.8%

Cc1nc2c(F)cc(-c3nc(Nc4ccc(CNC(=O)CCCCCCC(=O)NO)cc4)ncc3F)cc2n1C(C)C
inhibition (EIF2AK4; enzyme activity, inhibitor; 1 µM): 72%

COc1c(Cl)cccc1Nc1c(-c2ccncc2C#C[C@@]2(C)CCCN2C(=O)/C=C/CN(C)C)[nH]c2c1C(=O)NCC2
remaining binding (EIF2AK4 S808G; binding, competition with immobilised ligand; 3 µM): 95%

CNC(=O)C1CCN(c2cc(C)c(F)cc2NC(=O)c2ccc(-c3cc(O)ccc3C)c(C)c2)CC1
remaining binding (EIF2AK4 S808G C-terminal kinase domain; binding, competition with immobilised ligand; 1 µM): 75%

CN1CC[C@@H](COc2cnc(C#N)cc2-c2ccn3nc(NC(=O)C4CC4)cc3c2)C1
inhibition (EIF2AK4; enzyme activity, inhibitor; 1 µM): 21%

Some of these lines once more:
CCN1CCN(Cc2ccc(C(=O)Nc3ccc(C)c(NCc4cnc5[nH]ccc5c4OC)c3)cc2C(F)(F)F)CC1
remaining binding (EIF2AK4 S808G C-terminal kinase domain; binding, competition with immobilised ligand; 1 µM): 2.8%

CCN1CCN(Cc2ccc(NC(=O)c3ccc(C)c(NC(=O)c4cncc(-c5cccs5)c4)c3)cc2C(F)(F)F)CC1
remaining binding (EIF2AK4 S808G C-terminal kinase domain; binding, competition with immobilised ligand; 1 µM): 5.8%
